Published values of several laboratories.
Parts stem from different laboratories: compare values within a part only. Changes are numbered by the printed parent chain.

Block 1 — target: CCNA2, cyclin fold, Cln2 fusion (human); technique: yeast growth competition, sequencing; sample: yeast; notes: strong parent motif; relative to: not given; direction: higher = stronger binding; quantity: normalised enrichment score
Starting sequence: CDKN1A docking peptide (human); SKACRRLFGPVDS; partner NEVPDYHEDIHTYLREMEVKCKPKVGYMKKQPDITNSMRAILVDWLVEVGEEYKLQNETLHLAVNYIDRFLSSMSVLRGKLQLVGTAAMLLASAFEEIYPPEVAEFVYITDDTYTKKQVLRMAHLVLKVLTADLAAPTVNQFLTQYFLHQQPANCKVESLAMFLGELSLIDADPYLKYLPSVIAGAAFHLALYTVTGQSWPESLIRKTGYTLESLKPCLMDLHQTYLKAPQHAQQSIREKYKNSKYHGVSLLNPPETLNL
P10E: 5.9
A3V: 6.22
V11E: 6.16
P10D: 5.78
S1A: 5.39
R6S: 4.72
D12T: 5.55
F8M: 0.401

Block 2 — technique: RNA Bind-n-Seq; form: RNA; sample: in vitro; concentration: 100 nM; relative to: input RNA pool; direction: higher = stronger binding; quantity: bound/input enrichment
Target: RING finger protein unkempt homolog, zinc fingers 1-6, SBP tag (UNK, Homo sapiens, UniProt Q9C0B0, residues 30-357)
UniProt Q9C0B0, sequence (30-357, looked up): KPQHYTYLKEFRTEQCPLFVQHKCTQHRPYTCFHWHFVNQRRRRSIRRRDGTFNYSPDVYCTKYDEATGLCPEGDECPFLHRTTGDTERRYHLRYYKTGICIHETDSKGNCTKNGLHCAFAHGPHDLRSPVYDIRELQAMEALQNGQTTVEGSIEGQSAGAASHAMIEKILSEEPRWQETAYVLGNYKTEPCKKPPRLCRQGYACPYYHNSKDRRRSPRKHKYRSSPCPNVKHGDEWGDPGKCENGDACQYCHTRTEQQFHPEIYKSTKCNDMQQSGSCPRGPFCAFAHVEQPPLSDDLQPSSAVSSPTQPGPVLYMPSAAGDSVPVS
Notes: RNA with constant flanks, vertebrate orthologous sites, ends assumed
Shared flanks, not repeated: GGGAGUUCUACAGUCCGACGAUC … CAACAGAGGAUUGAGCAUCA
CAACUCCAUGGUUGAGGGCUCAGAACUCAGAAAGGUUCGCUCCAACUCUAGAAUUUACCAUAGGUAUUUUUUACUGGACGCUGACAUGCAGAGUCUGAGGUGGGAACCGUCGAAGAAGGA: 0.473 ratio
UGUUUGUUUUGCACAUGACAGUGUUUGUAUUGAGGCUCUUCUGAGGAGGAGGGGGUGCUCUACCAGUGGUGCCUGGGUUCCUGGCCUCUAGCGCCCCACCCGCCUCAGCACCCUGCCUGG: 0.257 ratio
GCCUCCAACAGGCAAAUUCAGGGAGAGGUAGGUUUCAGGGAAUAUAAAUUUACUUAAUAUUAGUGGUCUUUAAGUAUAAACUUGAUGUAAUUGGUUUGGGAGGGGCAGUGAUGAUGACUU: 1.19 ratio
GAGCUAAAGGAGUUAGCAUCUUUAUUUUUGUAUCAAAGAUAAAGGUUAUUUUGAAAUUAUUAGGAUUUUUACACAAUUCUGAAAUCUGUUGCUUUUGUAAACAAAUUGUUUGAUCUUAAU: 1.05 ratio
GUGGGGACAUACUCUGGGGAGCUGCCGGGCACUUACAUCGUUUGAUUUAUGACCUUGACUUACUAGAUAGGCUUUUUUUUUAAUUUAAAAAUAUUGACUUCACAAAAGUUUAUUCUAAGG: 0.793 ratio
UACCUCCUGAGCUUCUAGCUUUCAAGCUGUGGCUAUUUUUUUUUUUCUUUUUCUUUUCUUUAGAAUUUUUCCCCAUUUCCCACCUUCUCUUCCCCUGUUCCCAAGGUCUCACUCAUGGAU: 3.02 ratio
AGUAUCCCAGUUGUACCGUGUUGAGUUGGCAUUGUACAGAAAUUAACAGCCAUAUUGGUCUAGAAACGUUAAACUUAAUUUUUUUCCAUUUGUACAGGGGUAACGCACUGUAUUAAAUAU: 1.15 ratio
GGGUCCCUCCCAGGGUGAUGGCCAGGGUUGAGGACCCAAGGUUUCACCAAGGACCUGCAUUUCAAAGUUGUAAAUUCGUUGUACAGGAAGCCAUGUGGCUGAAACAGCCUCUCAAGGUCA: 0.249 ratio

Block 3 — technique: universal PBM; form: double-stranded DNA, one strand shown; sample: in vitro; concentration: not given; direction: higher = stronger binding; quantity: E-score
Target: Sal-like protein 4, full length isoform B (SALL4, Homo sapiens, UniProt Q9UJQ4-2, residues 1-616)
Notes: 8-mer, flanks averaged, mean of replicates
AAGTGATT: 0.214
ATGAAGGG: -0.0143
CGGCATAG: -0.0591
CAGCCCAC: -0.309
GGACGCGA: -0.159
AACAGATG: 0.0736
GACGACAC: -0.0837
CAAATTTA: 0.281

Other studies, line by line
Starting sequence: PafA, mature enzyme, eGFP fusion (Elizabethkingia meningoseptica, UniProt Q9KJX5); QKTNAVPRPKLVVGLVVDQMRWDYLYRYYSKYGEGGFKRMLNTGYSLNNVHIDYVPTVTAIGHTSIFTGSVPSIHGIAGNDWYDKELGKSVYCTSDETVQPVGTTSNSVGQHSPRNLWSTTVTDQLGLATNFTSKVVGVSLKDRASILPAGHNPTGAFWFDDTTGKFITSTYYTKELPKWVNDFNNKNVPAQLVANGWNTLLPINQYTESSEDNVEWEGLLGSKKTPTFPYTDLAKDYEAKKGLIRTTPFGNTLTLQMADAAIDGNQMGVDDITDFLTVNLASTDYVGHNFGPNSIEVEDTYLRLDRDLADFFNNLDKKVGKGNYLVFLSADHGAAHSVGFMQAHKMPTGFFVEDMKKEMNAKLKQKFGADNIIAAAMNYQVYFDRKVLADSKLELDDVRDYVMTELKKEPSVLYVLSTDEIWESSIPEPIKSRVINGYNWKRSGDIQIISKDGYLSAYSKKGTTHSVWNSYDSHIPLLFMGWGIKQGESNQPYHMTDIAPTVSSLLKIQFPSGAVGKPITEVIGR
N437V  oxyanion analog dissociation constant (vanadate, free oxyanion; microfluidic competitive inhibition; in vitro, cell-free expressed; not given, derived from inhibition constants, unchanged parent 676 nM; lower = stronger binding): 1.05 µM

Excerpt of the above (block 2):
UACCUCCUGAGCUUCUAGCUUUCAAGCUGUGGCUAUUUUUUUUUUUCUUUUUCUUUUCUUUAGAAUUUUUCCCCAUUUCCCACCUUCUCUUCCCCUGUUCCCAAGGUCUCACUCAUGGAU: 3.02 ratio
AGUAUCCCAGUUGUACCGUGUUGAGUUGGCAUUGUACAGAAAUUAACAGCCAUAUUGGUCUAGAAACGUUAAACUUAAUUUUUUUCCAUUUGUACAGGGGUAACGCACUGUAUUAAAUAU: 1.15 ratio
